Published values from different studies.
Compare with care: the assays were run in different laboratories. ± marks the error that the study gave.
Inward rectifier potassium channel 4: Inward rectifier potassium channel 4 (Homo sapiens, UniProt P48050)
Chain of UniProt P48050 (whole entry, looked up): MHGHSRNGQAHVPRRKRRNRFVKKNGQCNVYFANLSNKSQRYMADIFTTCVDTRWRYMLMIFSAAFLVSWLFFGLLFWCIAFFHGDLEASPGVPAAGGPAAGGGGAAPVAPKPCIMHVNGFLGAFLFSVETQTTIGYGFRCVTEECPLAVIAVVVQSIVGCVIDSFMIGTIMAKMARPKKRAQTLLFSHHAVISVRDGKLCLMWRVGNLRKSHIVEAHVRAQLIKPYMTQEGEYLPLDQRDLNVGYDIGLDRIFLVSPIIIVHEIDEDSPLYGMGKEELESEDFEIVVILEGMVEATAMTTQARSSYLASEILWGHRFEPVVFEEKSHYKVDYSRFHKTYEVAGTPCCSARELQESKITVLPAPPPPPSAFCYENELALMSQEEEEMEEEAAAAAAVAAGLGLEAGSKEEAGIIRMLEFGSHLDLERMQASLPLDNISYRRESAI
STS: Steryl-sulfatase (STS, Homo sapiens, UniProt P08842)
Chain of UniProt P08842 (whole entry, looked up): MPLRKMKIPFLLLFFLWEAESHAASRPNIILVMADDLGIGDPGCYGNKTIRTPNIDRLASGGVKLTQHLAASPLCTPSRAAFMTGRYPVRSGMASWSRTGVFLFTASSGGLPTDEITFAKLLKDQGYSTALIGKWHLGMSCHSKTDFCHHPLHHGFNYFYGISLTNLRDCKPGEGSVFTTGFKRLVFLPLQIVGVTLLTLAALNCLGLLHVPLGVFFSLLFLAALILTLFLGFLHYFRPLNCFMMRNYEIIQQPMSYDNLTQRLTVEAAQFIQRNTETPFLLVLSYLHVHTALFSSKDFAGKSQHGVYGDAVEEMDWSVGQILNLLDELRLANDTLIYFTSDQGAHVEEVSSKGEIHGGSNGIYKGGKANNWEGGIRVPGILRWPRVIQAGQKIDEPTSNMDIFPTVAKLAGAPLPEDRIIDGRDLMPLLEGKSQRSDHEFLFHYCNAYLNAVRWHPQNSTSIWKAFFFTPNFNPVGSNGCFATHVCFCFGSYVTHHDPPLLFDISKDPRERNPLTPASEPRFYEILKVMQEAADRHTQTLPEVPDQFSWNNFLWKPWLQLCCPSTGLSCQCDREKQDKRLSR
Urease: Urease (Canavalia ensiformis, UniProt P07374)
Chain of UniProt P07374 (whole entry, looked up): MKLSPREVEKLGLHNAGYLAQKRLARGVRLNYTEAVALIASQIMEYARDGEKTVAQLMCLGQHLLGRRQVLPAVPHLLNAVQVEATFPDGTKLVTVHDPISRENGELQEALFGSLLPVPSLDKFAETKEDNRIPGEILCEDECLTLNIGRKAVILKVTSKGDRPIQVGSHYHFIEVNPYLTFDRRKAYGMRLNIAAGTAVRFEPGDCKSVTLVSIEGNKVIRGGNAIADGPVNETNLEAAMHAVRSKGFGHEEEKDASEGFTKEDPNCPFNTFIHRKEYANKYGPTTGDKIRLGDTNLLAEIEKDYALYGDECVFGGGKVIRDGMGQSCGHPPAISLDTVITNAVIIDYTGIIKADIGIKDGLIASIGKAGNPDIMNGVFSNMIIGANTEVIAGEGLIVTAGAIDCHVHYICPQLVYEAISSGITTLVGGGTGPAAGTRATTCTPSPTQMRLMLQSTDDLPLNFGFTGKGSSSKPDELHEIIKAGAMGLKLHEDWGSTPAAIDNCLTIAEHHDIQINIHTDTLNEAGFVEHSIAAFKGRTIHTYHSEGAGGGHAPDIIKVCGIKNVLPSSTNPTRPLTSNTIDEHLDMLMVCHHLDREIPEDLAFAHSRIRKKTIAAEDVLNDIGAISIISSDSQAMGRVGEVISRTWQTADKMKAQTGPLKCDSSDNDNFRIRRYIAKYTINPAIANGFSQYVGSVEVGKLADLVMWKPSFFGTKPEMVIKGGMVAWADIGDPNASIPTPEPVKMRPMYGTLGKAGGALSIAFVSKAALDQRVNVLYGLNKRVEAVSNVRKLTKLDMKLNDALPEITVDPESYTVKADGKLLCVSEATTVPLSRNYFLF
CAPN1: Calpain-1 catalytic subunit (CAPN1, Homo sapiens, UniProt P07384)
Chain of UniProt P07384 (whole entry, looked up): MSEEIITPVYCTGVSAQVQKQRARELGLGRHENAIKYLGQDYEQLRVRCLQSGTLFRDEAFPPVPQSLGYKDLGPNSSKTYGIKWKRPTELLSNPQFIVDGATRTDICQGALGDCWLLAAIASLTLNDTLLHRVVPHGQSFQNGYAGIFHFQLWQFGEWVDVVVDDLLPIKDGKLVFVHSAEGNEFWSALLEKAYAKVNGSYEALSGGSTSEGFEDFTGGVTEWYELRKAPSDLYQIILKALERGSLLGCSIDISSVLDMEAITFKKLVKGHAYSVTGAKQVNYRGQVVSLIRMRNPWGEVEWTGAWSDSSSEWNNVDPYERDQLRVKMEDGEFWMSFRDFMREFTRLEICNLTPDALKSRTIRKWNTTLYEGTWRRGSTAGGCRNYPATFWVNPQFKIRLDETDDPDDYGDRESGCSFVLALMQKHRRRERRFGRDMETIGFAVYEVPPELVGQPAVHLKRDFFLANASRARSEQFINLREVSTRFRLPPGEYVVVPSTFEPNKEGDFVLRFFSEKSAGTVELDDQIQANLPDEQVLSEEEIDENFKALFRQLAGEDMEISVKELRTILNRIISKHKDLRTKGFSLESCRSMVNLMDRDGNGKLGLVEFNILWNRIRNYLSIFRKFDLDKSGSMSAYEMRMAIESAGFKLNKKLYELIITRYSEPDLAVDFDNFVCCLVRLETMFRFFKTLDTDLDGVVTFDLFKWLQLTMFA
KCNJ13 M125R: Inward rectifier potassium channel 13 (KCNJ13, Homo sapiens, UniProt O60928, M125R)
Chain of UniProt O60928 (whole entry, unmodified, looked up): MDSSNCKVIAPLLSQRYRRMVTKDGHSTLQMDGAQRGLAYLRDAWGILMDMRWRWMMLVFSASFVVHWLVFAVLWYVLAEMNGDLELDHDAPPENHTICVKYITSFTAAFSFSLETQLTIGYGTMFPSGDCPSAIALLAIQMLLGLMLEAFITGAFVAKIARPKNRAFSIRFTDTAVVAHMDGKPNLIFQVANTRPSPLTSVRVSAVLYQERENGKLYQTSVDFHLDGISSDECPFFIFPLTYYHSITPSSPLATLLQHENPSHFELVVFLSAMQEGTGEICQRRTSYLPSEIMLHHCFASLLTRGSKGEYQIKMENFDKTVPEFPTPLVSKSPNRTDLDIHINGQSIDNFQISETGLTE
Tubulin alpha-1B chain/TUBB2B: Tubulin alpha-1B chain/TUBB2B (Bos taurus, UniProt P81947+Q6B856)
Chain of UniProt P81947 (whole entry, looked up): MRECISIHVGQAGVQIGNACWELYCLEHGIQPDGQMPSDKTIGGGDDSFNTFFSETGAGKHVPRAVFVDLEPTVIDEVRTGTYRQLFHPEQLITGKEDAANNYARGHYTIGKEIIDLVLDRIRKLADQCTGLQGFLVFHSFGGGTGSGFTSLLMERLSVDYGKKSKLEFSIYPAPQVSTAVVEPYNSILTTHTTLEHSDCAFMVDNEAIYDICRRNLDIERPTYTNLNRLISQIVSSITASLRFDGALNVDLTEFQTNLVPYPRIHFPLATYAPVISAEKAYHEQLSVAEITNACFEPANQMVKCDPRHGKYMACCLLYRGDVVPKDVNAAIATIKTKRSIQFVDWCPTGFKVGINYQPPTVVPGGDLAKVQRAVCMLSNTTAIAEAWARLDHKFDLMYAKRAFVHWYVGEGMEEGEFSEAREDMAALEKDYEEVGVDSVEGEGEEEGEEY
Chain of UniProt Q6B856 (whole entry, looked up): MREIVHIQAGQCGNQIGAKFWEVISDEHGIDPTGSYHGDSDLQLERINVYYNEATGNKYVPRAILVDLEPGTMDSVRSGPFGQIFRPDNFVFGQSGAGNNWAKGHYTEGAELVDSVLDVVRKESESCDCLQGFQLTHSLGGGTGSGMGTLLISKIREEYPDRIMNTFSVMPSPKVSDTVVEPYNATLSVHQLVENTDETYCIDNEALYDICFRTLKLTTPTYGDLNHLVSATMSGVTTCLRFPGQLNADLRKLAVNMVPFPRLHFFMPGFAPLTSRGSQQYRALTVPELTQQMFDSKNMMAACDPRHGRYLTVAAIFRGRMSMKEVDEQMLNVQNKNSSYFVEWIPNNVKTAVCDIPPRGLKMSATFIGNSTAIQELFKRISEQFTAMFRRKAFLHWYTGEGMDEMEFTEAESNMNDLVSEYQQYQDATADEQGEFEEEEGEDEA
Kir1 channel protein: Kir1 channel protein (Aedes aegypti, UniProt L0EQS9)
MAL12: Alpha-glucosidase MAL12 (MAL12, Saccharomyces cerevisiae S288c, UniProt P53341)
Chain of UniProt P53341 (whole entry, looked up): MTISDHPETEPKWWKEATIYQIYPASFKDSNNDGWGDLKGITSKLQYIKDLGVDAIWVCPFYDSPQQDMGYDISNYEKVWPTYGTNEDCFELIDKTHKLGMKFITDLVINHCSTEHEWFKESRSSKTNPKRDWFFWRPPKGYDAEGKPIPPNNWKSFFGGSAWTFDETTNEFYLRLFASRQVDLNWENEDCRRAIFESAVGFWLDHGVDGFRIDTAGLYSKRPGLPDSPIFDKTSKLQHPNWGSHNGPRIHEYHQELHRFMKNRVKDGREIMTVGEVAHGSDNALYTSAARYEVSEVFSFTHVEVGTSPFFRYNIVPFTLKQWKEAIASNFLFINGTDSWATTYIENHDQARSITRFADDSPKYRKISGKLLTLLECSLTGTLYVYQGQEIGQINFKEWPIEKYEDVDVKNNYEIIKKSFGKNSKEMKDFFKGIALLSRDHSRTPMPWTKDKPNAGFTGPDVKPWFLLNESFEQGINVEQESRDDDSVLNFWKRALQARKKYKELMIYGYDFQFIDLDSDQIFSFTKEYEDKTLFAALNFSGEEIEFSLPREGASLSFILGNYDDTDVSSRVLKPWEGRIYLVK
Chain of UniProt Q9NRN7 (whole entry, looked up): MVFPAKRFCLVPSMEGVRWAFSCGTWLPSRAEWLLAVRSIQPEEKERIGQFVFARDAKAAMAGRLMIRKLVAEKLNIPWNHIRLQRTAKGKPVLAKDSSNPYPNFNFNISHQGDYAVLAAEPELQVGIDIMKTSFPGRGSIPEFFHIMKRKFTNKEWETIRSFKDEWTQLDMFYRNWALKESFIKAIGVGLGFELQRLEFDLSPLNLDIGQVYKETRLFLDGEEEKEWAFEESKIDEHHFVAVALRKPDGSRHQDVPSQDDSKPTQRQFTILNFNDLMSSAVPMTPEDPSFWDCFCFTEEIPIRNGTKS
Chain of UniProt Q07812 (whole entry, looked up): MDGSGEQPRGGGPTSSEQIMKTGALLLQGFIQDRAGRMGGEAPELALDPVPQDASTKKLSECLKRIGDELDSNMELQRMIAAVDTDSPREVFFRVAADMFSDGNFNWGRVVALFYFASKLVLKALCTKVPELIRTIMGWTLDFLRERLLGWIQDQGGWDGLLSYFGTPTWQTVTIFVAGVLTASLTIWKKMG

With CCCCN(Cc1ccc(C(=O)NO)cc1)C(=O)Nc1ccccc1 the IC50 was 5.1 µM (HDAC (Lucilia cuprina egg nuclear extract); enzyme activity, inhibitor, fluorometric).
NC(=O)[C@@H]1CC[C@@H]2CN1C(=O)N2OS(=O)(=O)O gave an IC50 of 30.5 µM (dacA (Streptococcus pneumoniae, UniProt Q8DQ99); binding, Bocillin FL competition; Streptococcus pneumoniae R6 membranes; together with: 100 µM Bocillin FL).
Cc1ccc2nc(C3CCC3)n(-c3ccc4[nH]c(=O)sc4c3)c2n1 has an IC50 of 2e-05 µM (GRIA1/CACNG8 (Homo sapiens, UniProt P42261+Q8WXS5); calcium influx, antagonist, FLIPR; HEK293 expressing GluA1o; together with: glutamate 100 µM).
With O=C(Nc1cccc(OC(F)(F)F)c1)N[C@H]1CC[C@H](Oc2ccc(C(=O)O)cc2)CC1 the IC50 was 0.016 µM (Ephx2 (Rattus norvegicus, UniProt P80299); enzyme activity, inhibitor, fluorescence).
With CCN(CCO)CCC[C@H](C)Nc1ccnc2cc(Cl)ccc12 the IC50 was 6.5 µM (KCNJ2 (Homo sapiens, UniProt P63252); ion current, inhibitor, patch clamp).
Cc1cccc(Cc2nn(C(C)(C)C)c3ncnc(N)c23)c1 gave an IC50 of 0.58 µM (EPHB1 (Homo sapiens, UniProt P54762); enzyme activity, inhibitor, radiometric).
With N=c1n(Cc2ccccc2)c2ccccc2n1CC(O)COc1cccc(Cl)c1 (stereo not drawn) the IC50 was 4.45 µM (Inward rectifier potassium channel 4; ion flux, inhibitor, fluorescence).
NS(=O)(=O)Oc1ccc(CC(c2ccc(Cl)cc2)n2cncn2)cc1 (racemic) has an IC50 of 2.23 ± 0.666 µM (STS; enzyme activity, inhibitor; JEG-3; 1 h, together with: [3H]oestrone sulfate).
FC(F)(F)c1cccc(NC(=S)N2CCc3ccccc3C2)c1 has an IC50 of 26.8 µM (Urease; enzyme activity, inhibitor, absorbance).
[Zn+2] gave an IC50 of 0.141 ± 0.0021 µM (Caspase-7 (CASP7, Homo sapiens, UniProt P55210); enzyme activity, inhibitor; citrate-buffered free compound, together with: DEVD-AMC substrate).
The IC50 of CCCCCC/C=C\CC(=O)N[C@@H](CO)C(=O)N[C@H](C(=O)N[C@@H](CO)[C@@H](O)CC(=O)N[C@H](C(=O)N[C@@H]1C=CC(=O)N[C@@H](C(C)C)C(=O)N(C)[C@@H](Cc2ccc(O)cc2)C(=O)OC1)C(C)C)C(C)C is reported as 0.0565 µM (CAPN1; enzyme activity, inhibitor, fluorescence).
With O=C(OC[C@H]1OC[C@H](OC(=O)c2cc(O)c(O)c(O)c2)[C@@H](O)[C@@H]1O)c1cc(O)c(O)c(O)c1 the IC50 was 10.6 µM (ALKBH2 (Homo sapiens, UniProt Q6NS38); 1-methyladenine repair, inhibitor, HPLC; 1 h, 37 °C, together with: ssDNA 16mer 5 µM).
With Cc1cc(C)cc(OCC(O)Cn2c(=N)n(Cc3ccccc3)c3ccccc32)c1 (stereo not drawn) the IC50 was 3.03 µM (KCNJ13 M125R; ion flux, inhibitor).
With CCCCCc1cc(O)c(C/C=C(\C)CCC=C(C)C)c(O)c1 the IC50 was 13.3 ± 1 µM (SCN9A (Homo sapiens, UniProt Q15858); steady-state inactivation, inhibitor, automated patch clamp; 500/200 ms prepulse).
With `Angeli's salt` the IC50 was 0.4 µM (GAPDH (Oryctolagus cuniculus, UniProt P46406); enzyme activity, inhibitor, NADH absorbance; 60 min, pH 7.4, 25 °C).
The IC50 of COC(=O)C1=C(C)NC(C)=C(C(=O)OC)C1c1ccccc1[N+](=O)[O-] is reported as greater than 3 µM (CACNA1H (Homo sapiens, UniProt O95180); calcium current, blocker, automated patch clamp; holding potential -90 mV; together with: 60 s prepulse, -75 mV).
Nc1nc2ccc(OC(F)(F)F)cc2s1 gave an IC50 of 67 ± 9 µM (Scn2a (Mus musculus, UniProt B1AWN6); sodium current, inhibitor; N1E-115; 0.1 Hz stimulation).
The IC50 of CC(C)N(C)c1nc2cc(C(=O)O)ccc2nc1-c1ccc(F)cc1 is reported as roughly 0.004 µM (PASK (Homo sapiens, UniProt Q96RG2); enzyme activity, inhibitor).
For Nc1nc2c(ncn2[C@@H]2O[C@H](COP(=O)(O)OP(=O)(O)O)[C@@H](O)[C@H]2O)c(=O)[nH]1, the IC50 was 260 ± 50 µM (Tubulin alpha-1B chain/TUBB2B; tubulin assembly, inhibitor, turbidimetry; tubulin 30 µM, GTP 20 µM, together with: paclitaxel 30 µM).
For CC1=NN(c2nc(-c3ccccc3)cs2)C(=O)C1=NNc1nccs1, the IC50 was 3.7 µM (Apoptosis regulator BAX, trigger site (BAX, Homo sapiens, UniProt Q07812); binding, competitor, fluorescence polarization; together with: FITC-BIM SAHBA2 50 nM).
The IC50 of O=C(NCCSSCCNC(=O)/C(Cc1ccc(O)c(Br)c1)=N/O)/C(Cc1ccc(O)c(Br)c1)=N/O is reported as 0.015 µM (HDAC (Lucilia cuprina egg nuclear extract); enzyme activity, inhibitor, fluorometric).
For CNC(CCC(N)C(=O)O)CC1OC(n2cnc3c(N)ncnc32)C(O)C1O (stereo not drawn), the IC50 was greater than 100 µM (SETD2 (Homo sapiens, UniProt Q9BYW2); enzyme activity, inhibitor, radiometric methylation; together with: SAM and peptide at sub-Km).
With Cc1ccnc2[nH]c(-c3cccc(O)c3)cc(=O)c12 the IC50 was 1 µM (Tubulin alpha-1A/beta chain (Sus scrofa, UniProt P02550+P02554); tubulin polymerisation, inhibitor, absorbance).
With Cc1cc(OCC(=O)N/N=C/c2ccc(OCc3cn(Cc4ccc(Br)cc4)nn3)cc2)c2c(C)cc(=O)oc2c1 the IC50 was 11.8 ± 1.32 µM (Urease; enzyme activity, inhibitor).
O=c1cc(-c2ccccc2)[nH]c2ccc3c(ccn3S(=O)(=O)c3ccc(C(F)(F)F)cc3)c12 has an IC50 of 2.2 to 2.4 µM (Tubulin alpha-1B chain/TUBB2B; tubulin polymerization, turbidimetry; 20 min).
The IC50 of Cc1cc(OCC(O)Cn2c(=N)n(Cc3ccccc3)c3ccccc32)ccc1Br (stereo not drawn) is reported as 6.1 µM (KCNJ13 M125R; ion flux, inhibitor).
The IC50 of CC(=O)Nc1ccc(O)cn1 is reported as 399 µM (PTGS1 (Ovis aries, UniProt P05979); enzyme activity, inhibitor; pH 8).
The IC50 of Nc1ncnc2c1ncn2[C@H]1C[C@H](OP(=O)(O)O)[C@@H](COP(=O)(O)O)O1 is reported as 51 ± 1 µM (AASDHPPT (Homo sapiens, UniProt Q9NRN7); phosphopantetheinylation, inhibitor, fluorescence polarization; 45 min, pH 7.6, 10% DMSO, together with: VibB 10 µM and rhodamine-CoA 5 µM).
With COc1cc(C(=O)NS(=O)(=O)c2ccccc2C)ccc1Cc1cn(C)c2ccc(NC(=O)OC3CCCC3)cc12 the IC50 was 71 µM (HSPA1A (Homo sapiens, UniProt P0DMV8); ATPase activity, inhibitor).
The IC50 of O=[N+]([O-])c1ccc(N2CCN(S(=O)(=O)c3ccc(F)cc3)CC2)cc1NCc1ccon1 is reported as 30.4 µM (Kir1 channel protein; ion flux, inhibitor, fluorescence).
C#CCOc1ccc2c(c1)C(=O)CC(c1ccccc1)O2 (stereo not drawn) gave an IC50 of 2.35 µM (Cytochrome P450 2B1 (Cyp2b1, Rattus norvegicus, UniProt P00176); enzyme activity, inhibitor; supersomes; together with: pentoxyresorufin 5 µM).
[Cl-].[Cl-].[Cl-].[Tb+3] gave an IC50 of 6.2 ± 0.32 µM (human MMP-2 catalytic domain; inhibitor; pH 7.5, 37 °C, 45 min preincubation, together with: DQ-gelatin).
The IC50 of CC[C@@H](C)c1nc2cc(Nc3ccnc4ccc(S(=O)(=O)C(C)C)cc34)ccc2s1 is reported as 0.003 µM (RIPK3 (Homo sapiens, UniProt Q9Y572); enzyme activity, inhibitor, ADP detection).
C[C@@H](CNCc1ccccc1)N1C[C@H](CCCNC(=N)N)N(CCc2cccc(F)c2)C1=S has an IC50 of greater than 1 µM (NMDA receptor phencyclidine site; binding, radioligand displacement).
With C[C@H]1O[C@H](O[C@H]2[C@H](O)[C@@H](O)[C@@H](O[C@H]3[C@H](O)[C@@H](O)C(O)O[C@@H]3CO)O[C@@H]2CO)[C@H](O)[C@@H](O)[C@@H]1N[C@H]1C=C(CO)[C@@H](O)[C@H](O)[C@H]1O (stereo partly drawn) the IC50 was 114 ± 3.68 µg/mL (maltase, rat intestine; enzyme activity, inhibitor; 45 min, pH 6.8, 37 °C, together with: maltose 5 mM).
For Clc1nc2n[nH]nc2nc1Cl, the IC50 was greater than 10 µM (Genome polyprotein, NS2B-NS3 protease (dengue virus type 2, UniProt P29990); enzyme activity, inhibitor; Dengue virus; pH 8.0, together with: 20 µM Pyr-RTKR-AMC).
For S=C(Nc1ccccc1)N1CCc2ccccc2C1, the IC50 was 26.7 µM (Urease; enzyme activity, inhibitor, absorbance).
With OCc1ccc(-c2nn(Cc3ccccc3)c3ccccc23)o1 the IC50 was 16.9 µM (KCNK18 (Homo sapiens, UniProt Q7Z418); ion flux, inhibitor).
COc1cc(/C=N/NC(=O)COc2cc(C)cc3oc(=O)cc(C)c23)ccc1OCc1cn(Cc2ccccc2)nn1 has an IC50 of 14.8 ± 1.02 µM (Urease; enzyme activity, inhibitor).
The IC50 of O=c1cc(-c2cccc3ccccc23)[nH][nH]1 is reported as 21 µM (ALPL (Homo sapiens, UniProt P05186); enzyme activity, inhibitor, colorimetric OD405; HTS library sample, together with: 0.5 mM pNPP).
With COc1cc(C2C(C#N)=C(N)Oc3c2c(=O)[nH]c2ccccc32)ccc1OCc1cn(Cc2ccc(Cl)cc2)nn1 (stereo not drawn) the IC50 was 9.9 ± 0.5 µM (MAL12; enzyme activity).
The IC50 of N=c1n(Cc2ccccc2)c2ccccc2n1CC(O)COc1ccccc1 (stereo not drawn) is reported as 3.43 µM (Inward rectifier potassium channel 4; ion flux, inhibitor, fluorescence).
With CC(C)C[C@H](NC(=O)[C@@H]1O[C@H]1C(=O)O)C(=O)Nc1c(F)cccc1F the IC50 was greater than 1 µM (CAPN1; inhibitor, FRET; 20 min).
CC(C)OCCn1c(=S)[nH]c(=O)c2[nH]ccc21 has an IC50 of 0.59 µM (Myeloperoxidase (MPO, Homo sapiens, UniProt P05164); HOCl production; 6 min, enzyme 10 nM, together with: H2O2 50 µM, taurine 5 mM).
For N#Cc1cc(F)cc(OCC(O)Cn2c(=N)n(Cc3ccccc3)c3ccccc32)c1 (stereo not drawn), the IC50 was 8.27 µM (KCNJ13 M125R; ion flux, inhibitor).
Cc1nnc(CNc2cc(N3CCN(S(=O)(=O)c4ccc(F)cc4)CC3)ccc2[N+](=O)[O-])s1 gave an IC50 of 0.381 µM (Kir1 channel protein; ion flux, inhibitor, fluorescence).
For N=c1n(Cc2ccccc2)c2ccccc2n1CC(O)COc1ccccc1Cl (stereo not drawn), the IC50 was 5.33 µM (KCNJ13 M125R; ion flux, inhibitor).
O=C(NNC(=O)c1ccc(CNS(=O)(=O)c2ccc(F)c(Cl)c2)cc1)c1ccccc1 gave an IC50 of 1.9 µM (Glutamate NMDA receptor; Grin1/Grin2a (Grin1/Grin2a, Rattus norvegicus, UniProt P35439+Q00959, V783F); ion current, two-electrode voltage clamp; oocytes).
OC[C@H]1O[C@H]([S-])[C@H](O)[C@@H](O)[C@@H]1O.[Au+] gave an IC50 of 1.46 µM (Carbamate kinase (Giardia intestinalis, UniProt A8BB85); enzyme activity, ATP luminescence).
C[C@]12CC[C@@H]3c4cc(OC(F)F)c(OS(N)(=O)=O)cc4CC[C@H]3[C@@H]1CC[C@@H]2OS(N)(=O)=O has an IC50 of 0.0037 µM (STS; inhibitor; JEG-3).
With CO[C@H]1/C=C/O[C@@]2(C)Oc3c(C)c(O)c4c(O)c(c(/C=N/N5CCN(C)CC5)c(O)c4c3C2=O)NC(=O)/C(C)=C\C=C\[C@H](C)[C@H](O)[C@@H](C)[C@@H](O)[C@@H](C)[C@H](OC(C)=O)[C@@H]1C the IC50 was roughly 1 µM (SLCO1B1 (Homo sapiens, UniProt Q9Y6L6); transporter uptake, inhibitor; HEK293).
The IC50 of O=C(C[S+]([O-])Cc1cccs1)C12CC3CC(CC(C3)C1)C2 (stereo not drawn) is reported as greater than 100 µM (Cytochrome P450 3A4 (CYP3A4, Homo sapiens, UniProt P08684); enzyme activity, inhibitor, fluorescence).
With COc1cc2c(cc1OC)-c1c/c(=N\c3c(C)cc(C)cc3C)n(C)c(=O)n1CC2 the IC50 was 2 µM (PDE2A (Homo sapiens, UniProt O00408); enzyme activity, inhibitor, FP).
N#CC1=C(N)Oc2c(c(=O)[nH]c3ccccc23)C1c1cccc(OCc2cn(Cc3ccc(Cl)cc3)nn2)c1 (stereo not drawn) has an IC50 of 15.13 ± 0.15 µM (MAL12; enzyme activity).

Some of these lines once more:
With Cc1cc(OCC(=O)N/N=C/c2ccc(OCc3cn(Cc4ccc(Br)cc4)nn3)cc2)c2c(C)cc(=O)oc2c1 the IC50 was 11.8 ± 1.32 µM (Urease; enzyme activity, inhibitor).
The IC50 of CC[C@@H](C)c1nc2cc(Nc3ccnc4ccc(S(=O)(=O)C(C)C)cc34)ccc2s1 is reported as 0.003 µM (RIPK3 (Homo sapiens, UniProt Q9Y572); enzyme activity, inhibitor, ADP detection).
For S=C(Nc1ccccc1)N1CCc2ccccc2C1, the IC50 was 26.7 µM (Urease; enzyme activity, inhibitor, absorbance).
FC(F)(F)c1cccc(NC(=S)N2CCc3ccccc3C2)c1 has an IC50 of 26.8 µM (Urease; enzyme activity, inhibitor, absorbance).
With `Angeli's salt` the IC50 was 0.4 µM (GAPDH (Oryctolagus cuniculus, UniProt P46406); enzyme activity, inhibitor, NADH absorbance; 60 min, pH 7.4, 25 °C).
